Published values of several laboratories.
Parts stem from different laboratories: compare values within a part only. Positions count from the first letter of the parent shown.

Block 1
Target: PABPC1L2, full length, GST fusion (mouse, UniProt A0ABA7IW68)
Technique: RNAcompete
Form: RNA
Sample: in vitro
Tested at: 20 nM
Setting: 7-mer, probes averaged, single round
Reference: mean of 7-mers
Direction: higher = stronger binding
Construct (chain): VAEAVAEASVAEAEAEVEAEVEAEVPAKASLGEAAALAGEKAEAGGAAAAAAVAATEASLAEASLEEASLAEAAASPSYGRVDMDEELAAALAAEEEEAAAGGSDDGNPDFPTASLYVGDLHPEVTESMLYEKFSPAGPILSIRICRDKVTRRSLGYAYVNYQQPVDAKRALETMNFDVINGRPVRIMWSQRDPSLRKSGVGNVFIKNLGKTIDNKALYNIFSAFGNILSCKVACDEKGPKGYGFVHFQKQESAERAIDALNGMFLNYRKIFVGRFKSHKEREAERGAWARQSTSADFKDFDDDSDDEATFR
| Oligonucleotide | 7-mer Z-score |
| --- | --- |
| CAGGUAG | 0.0533 |
| CACACAC | -0.103 |
| UCGAAUU | -0.146 |
| AAGGACC | 0.236 |
| CUGGGCA | 0.254 |
| GGCUGUU | -0.104 |
| CAGCACC | -0.0482 |
| CCACGGC | -0.132 |
| UGUGUUC | -0.469 |
| GGGCCUA | 0.285 |
| AUAAGGC | 0.129 |
| UUUGUGU | -0.556 |
| GCUUGUG | -0.284 |
| GCUAACU | -0.251 |
| CGUGUAC | -0.226 |
| GGGAGUG | 0.245 |
| UACAGAU | 0.0406 |
| CCUGGAC | -0.215 |
| GUUUUGA | -0.309 |
| UACUAGA | -0.161 |
| UAGAGCG | -0.0826 |
| CCCGGGA | -0.199 |
| UUUCAAG | -0.358 |
| AGACGCC | -0.32 |
| CGAGUCG | -0.36 |

Block 2
Target: Histone acetyltransferase KAT6A, winged helix 2, GST fusion (KAT6A, Homo sapiens, UniProt Q92794, residues 85-181)
Technique: protein binding microarray
Form: double-stranded DNA, one strand shown
Sample: in vitro
Tested at: not given
Setting: 8-mer, flanks averaged, mean of 2 arrays, mostly near background
Reference: not given
Direction: higher = stronger binding
Residues (chain): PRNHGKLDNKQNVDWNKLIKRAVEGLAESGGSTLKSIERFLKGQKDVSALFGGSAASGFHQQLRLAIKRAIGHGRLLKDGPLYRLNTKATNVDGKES
| Oligonucleotide | E-score |
| --- | --- |
| AAGAGCAC | 0.0691 |
| CCACTCGA | 0.109 |
| AGCCGGAG | 0.258 |
| CAATCGTC | -0.172 |
| CTGCGACA | 0.184 |
| ATAAGGTG | 0.134 |
| AATTGGAT | -0.0161 |
| AACCTAGA | -0.069 |
| GAAGACTC | -0.0657 |
| GCGCTCTA | 0.121 |
| CATAGAAC | -0.164 |
| CGCGAATA | 0.0675 |
| CGGCTGAA | 0.103 |
| GACTCGGA | 0.0819 |
| ACGTATAC | -0.237 |
| AACTCCAA | 0.0847 |
| GATATGCC | -0.0461 |
| ATTTGATC | -0.0389 |
| CTTGAAAC | 0.138 |
| GTGCACTA | -0.0505 |
| CGCTCTAG | -0.0433 |
| AATCCGCA | 0.0472 |
| AACTTAGA | -0.0754 |
| CGAGCCTC | -0.0471 |
| ACGTCCCT | -0.0971 |

Block 3
Target: Interferon regulatory factor 5, full length, phosphomimetic (IRF5, Homo sapiens, UniProt Q13568-2, residues 1-514, K96S/S451D/S453D/S456D/S462D)
Technique: protein-binding microarray
Form: double-stranded DNA, one strand shown
Sample: in vitro
Tested at: 250 nM
Setting: 60-bp whole probe
With: salmon DNA 0.4 mg/ml
Reference: random background probes
Direction: higher = stronger binding
Constant ends, left off below: GCCTAGCAC … GTCTTGATTCGCTTGACGCTGCTG
| Oligonucleotide | log fluorescence |
| --- | --- |
| GACGGTCTCGGTCACGGGACGTGCTAG | 0.103 z-score |
| GACGGTTTCGTACTGCTGACGTGCTAG | 3.08 z-score |
| TTTAAAGAACCCACTATCTTGTGCTAG | 0.198 z-score |
| TTACGACTGGACACTGGGTTAGTGCTA | 0.287 z-score |
| TTAGATTTCAGTATAGATTAGTGCTAG | 2.36 z-score |
| TTAGGACCGGGTATCGGTTAGTGCTAG | 3.85 z-score |
| TTAGGACTGGGTATCGTTTAGTGCTAG | 0.982 z-score |
| TCATTTTTTTTTTCTACACTGTGCTAG | 1.29 z-score |
| GACGCTCTCCTACTGCTGACGTGCTAG | -0.295 z-score |
| TCAGTGCTCATGCTTCTTACTGTGCTA | -0.292 z-score |
| GACGATTTCGCGTATCGAGACGTGCTA | 1.26 z-score |
| TCACTTTTGCTAATTTTACTGTGCTAG | 1.68 z-score |
| GACGGTCTCGGAATGGGGACGTGCTAG | 0.024 z-score |
| ACGTCTTCATGTTTTTTTCTGTGCTAG | 1.02 z-score |
| TCATACTTCTGTTTTTGACTGTGCTAG | 0.821 z-score |
| GACGGTATCCCTCTCCTGACGTGCTAG | -0.0311 z-score |
| TTAGAACTGGGGTATCGAGTAGTGCTA | 0.382 z-score |
| GACGGTTTCGGACCGGGGACGTGCTAG | 3.1 z-score |
| TTAGATATCGGGTCTGGATTAGTGCTA | 1.58 z-score |
| TCAATGATTTTTTTCATACTGTGCTAG | 0.692 z-score |

Block 4
Target: ATF5, bZIP domain (human)
Technique: DHFR protein complementation
Sample: yeast
Setting: single substitutions, most at no-binding floor
Reference: wild-type JUN-FOS pair
Direction: higher = stronger binding
Parent: JUN, bZIP domain (human); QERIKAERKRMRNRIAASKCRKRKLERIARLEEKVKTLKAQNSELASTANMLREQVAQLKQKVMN; partner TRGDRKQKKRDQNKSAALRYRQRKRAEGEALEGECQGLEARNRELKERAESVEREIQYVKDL
| Variant | binding fitness |
| --- | --- |
| I28R | -1.38 natural log |
| R53T | -1.58 natural log |
| L31F | -1.54 natural log |
| E44H | -1.49 natural log |
| K39I | -1.33 natural log |
| A57N | -1.46 natural log |
| T37L | -1.34 natural log |
| S47F | -1.46 natural log |
| V35M | -1.59 natural log |
| S47T | -1.35 natural log |
| S47V | -1.4 natural log |
| T48A | -1.35 natural log |
| A46K | -1.47 natural log |
| L38D | -1.53 natural log |
| L31P | -1.53 natural log |

Block 5
Target: Sal-like protein 4, full length isoform B (SALL4, Homo sapiens, UniProt Q9UJQ4-2, residues 1-616)
Technique: universal PBM
Form: double-stranded DNA, one strand shown
Sample: in vitro
Tested at: not given
Setting: 8-mer, flanks averaged, mean of replicates
Direction: higher = stronger binding
| Oligonucleotide | E-score |
| --- | --- |
| ACTGTAAG | 0.146 |
| ATCTAAGC | -0.04 |
| ACGAATAC | 0.158 |
| AAGCAAAA | 0.233 |
| ACCAGGCT | -0.148 |
| AACTTCTC | 0.0785 |
| AGTTTGTA | 0.116 |
| ATCGAGTG | 0.013 |
| CATTATGG | 0.116 |
| AGTGCAGG | -0.233 |
| TTACATAA | 0.361 |
| CGGAAACG | -0.188 |
| ATCGCAGC | -0.0837 |
| CCAAGGAA | -0.00474 |
| CCTCGCGA | -0.188 |
| GGCTTTGA | -0.00564 |
| ATTTCTAC | 0.161 |
| TGTCCGAA | 0.0492 |
| CCGAATGA | 0.0731 |
| CCTTGCCC | -0.25 |
| CCCAATCC | -0.218 |
| GTTAAACA | 0.195 |
| AATTCGGC | -0.0697 |

Block 6
Target: CCND1, cyclin fold, Cln2 fusion (human)
Technique: yeast growth competition, sequencing
Sample: yeast
Setting: weak parent motif
Reference: not given
Direction: higher = stronger binding
Parent: E2F1 docking peptide (human); PPVKRRLDLETDH
| Variant | normalised enrichment score |
| --- | --- |
| E10F | 0.169 |
| R5Q | 0.315 |
| T11D | 0.154 |
| P1H | 0.645 |
| E10P | -0.106 |
| P1L | 1.42 |
| E10I | 0.369 |
| K4P | 0.31 |
| P1S | 0.959 |
| H13P | 0.727 |
| E10A | 0.729 |
| D12N | -0.382 |
| V3C | 0.263 |

Repeated from above (block 2):
| Oligonucleotide | E-score |
| --- | --- |
| AGCCGGAG | 0.258 |
| CAATCGTC | -0.172 |
| CTGCGACA | 0.184 |
| ATAAGGTG | 0.134 |
| AATTGGAT | -0.0161 |
| AACCTAGA | -0.069 |
| GAAGACTC | -0.0657 |
| GCGCTCTA | 0.121 |
| CATAGAAC | -0.164 |
| CGCGAATA | 0.0675 |
| CGGCTGAA | 0.103 |
| GACTCGGA | 0.0819 |
| ACGTATAC | -0.237 |
| AACTCCAA | 0.0847 |
| GATATGCC | -0.0461 |
| ATTTGATC | -0.0389 |
